Measurements of several laboratories.
A part holds a random share of what one study measured. Several values in a cell are separate wells, animals, samples, runs or records.

Sample 1 — read-out: thermal unfolding; method: differential scanning fluorimetry; tested at: 5.5 µM; reading: higher = more unfolded
Structure (SMILES): C[C@@H]1CN(c2ccc(-c3cc(C(=O)NCCOCCOCCOCCOCCOCCOCCNC(=O)/C=C/c4[nH]cc(C(=O)N[C@@H](CC(N)=O)c5ccc(F)c(Cl)c5)c4-c4ccc(Cl)cc4F)ccc3F)cc2NC(=O)c2ccc(F)cc2C(F)(F)F)C[C@H](C)N1C
WDR5: WD repeat-containing protein 5 (WDR5, Homo sapiens, UniProt P61964)
DCAF1: DDB1- and CUL4-associated factor 1 (DCAF1, Homo sapiens, UniProt Q9Y4B6)
Sequence of UniProt Q9Y4B6 (whole entry, looked up): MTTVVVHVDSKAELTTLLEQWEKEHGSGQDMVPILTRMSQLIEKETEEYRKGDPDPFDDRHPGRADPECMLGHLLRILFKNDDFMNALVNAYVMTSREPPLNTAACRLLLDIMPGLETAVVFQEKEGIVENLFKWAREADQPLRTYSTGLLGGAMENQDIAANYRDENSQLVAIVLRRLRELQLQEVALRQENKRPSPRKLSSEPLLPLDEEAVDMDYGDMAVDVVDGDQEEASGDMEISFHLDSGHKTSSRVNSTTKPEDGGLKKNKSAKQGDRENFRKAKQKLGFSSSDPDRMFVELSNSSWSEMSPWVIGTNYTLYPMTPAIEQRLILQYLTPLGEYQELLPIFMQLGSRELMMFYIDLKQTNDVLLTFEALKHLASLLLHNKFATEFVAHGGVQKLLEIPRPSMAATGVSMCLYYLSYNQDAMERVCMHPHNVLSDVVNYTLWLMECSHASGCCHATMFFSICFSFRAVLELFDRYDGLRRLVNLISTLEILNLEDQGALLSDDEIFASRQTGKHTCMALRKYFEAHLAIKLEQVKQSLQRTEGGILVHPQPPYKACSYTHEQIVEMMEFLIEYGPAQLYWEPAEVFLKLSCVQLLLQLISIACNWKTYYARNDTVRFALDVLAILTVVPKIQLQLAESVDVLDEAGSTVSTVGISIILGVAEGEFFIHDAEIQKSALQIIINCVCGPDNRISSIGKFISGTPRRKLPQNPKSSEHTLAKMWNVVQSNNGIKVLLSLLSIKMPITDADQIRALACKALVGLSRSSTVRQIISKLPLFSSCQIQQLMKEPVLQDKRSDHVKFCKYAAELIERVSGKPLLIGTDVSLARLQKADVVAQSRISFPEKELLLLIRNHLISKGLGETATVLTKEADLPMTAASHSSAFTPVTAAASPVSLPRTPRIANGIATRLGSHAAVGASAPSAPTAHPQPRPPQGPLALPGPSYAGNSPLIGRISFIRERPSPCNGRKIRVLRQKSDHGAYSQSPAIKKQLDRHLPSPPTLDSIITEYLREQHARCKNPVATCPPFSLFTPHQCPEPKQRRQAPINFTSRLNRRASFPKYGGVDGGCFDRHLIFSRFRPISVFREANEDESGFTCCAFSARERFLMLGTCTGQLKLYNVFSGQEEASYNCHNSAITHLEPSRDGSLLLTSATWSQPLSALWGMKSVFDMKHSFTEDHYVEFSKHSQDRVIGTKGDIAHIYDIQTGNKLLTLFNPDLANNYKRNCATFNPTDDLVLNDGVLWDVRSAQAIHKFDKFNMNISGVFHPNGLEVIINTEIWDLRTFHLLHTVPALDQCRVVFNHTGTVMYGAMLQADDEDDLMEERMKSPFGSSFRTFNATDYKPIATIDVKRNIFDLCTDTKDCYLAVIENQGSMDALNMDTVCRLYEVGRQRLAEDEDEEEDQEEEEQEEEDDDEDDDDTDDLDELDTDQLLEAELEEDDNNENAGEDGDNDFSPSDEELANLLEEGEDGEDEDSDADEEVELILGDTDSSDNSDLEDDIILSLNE
target	temperature	SYPRO Orange fluorescence
WDR5	50 °C	16400 a.u.
WDR5	73.21 °C	40800 a.u.
WDR5	36.4 °C	13900 a.u.
WDR5	91.41 °C	52700 a.u.
DCAF1	73.81 °C	45000 a.u.
WDR5	67.41 °C	20200 a.u.
WDR5	54.21 °C	16900 a.u.
DCAF1	28.8 °C	8090 a.u.
DCAF1	28.2 °C	8000 a.u.
WDR5	53.61 °C	16700 a.u.
WDR5	60.21 °C	15300 a.u.

Sample 2
SMILES: Cc1ncsc1-c1ccc(C(CO)NC(=O)C2CC(O)CN2C(=O)C(C(C)C)n2cc(-c3ccc(COc4c(-c5c(C)c(F)cc6[nH]ncc56)c(C5CC5)cc5c(N6CC7CC6CN7)nc(OC6CCOCC6)nc45)cc3)nn2)cc1 (stereo not drawn)
cell line	host	route	dose	time	tumour volume
GP2d xenograft	mouse	–	30 mg/kg twice weekly	day 4	193 mm3 and 202 mm3 and 223 mm3 and 155 mm3 and 206 mm3
–	mouse, HT-29 xenograft	sc	30 mg/kg once daily	day 13	575 mm3 and 690 mm3 and 914 mm3 and 709 mm3 and 869 mm3
HPAC xenograft	mouse	–	30 mg/kg once weekly	day 7	342 mm3 and 260 mm3 and 284 mm3 and 252 mm3 and 402 mm3
–	mouse, lung LXFA sample A PDX	–	10 mg/kg twice weekly	day 9	177 mm3 and 127 mm3 and 348 mm3 and 84.9 mm3 and 245 mm3 and 69.8 mm3 and 64.2 mm3 and 131 mm3
–	mouse, PK-59 xenograft	–	30 mg/kg	day 14	117 mm3 and 196 mm3 and 123 mm3 and 176 mm3 and 118 mm3
–	mouse, A-375 xenograft	sc	30 mg/kg once daily	day 6	204 mm3 and 371 mm3 and 298 mm3 and 331 mm3 and 265 mm3
–	mouse, A-375 xenograft	sc	30 mg/kg once daily	day 15	1020 mm3 and 719 mm3 and 713 mm3 and 689 mm3 and 1240 mm3
–	mouse, PK-59 xenograft	subcutaneous	30 mg/kg once daily	day 20	38.6 mm3 and 38.1 mm3 and 29.1 mm3 and 39.4 mm3 and 43.4 mm3
–	mouse, PK-59 xenograft	–	3 mg/kg	day 0	231 mm3 and 274 mm3 and 311 mm3 and 310 mm3 and 322 mm3
–	mouse, A-375 xenograft	sc	30 mg/kg once daily	day 3	222 mm3 and 213 mm3 and 162 mm3 and 197 mm3 and 242 mm3

Sample 3 — cell line: U-87 MG; tested at: concentration not given; baseline: DMSO
Structure (SMILES): CCN1/C(=C/C=C2\CCCC(/C=C/C3=[N+](CC)c4ccccc4C3(C)C)=C2NCCCCCCCCN2CCC(Nc3nc4ccccc4n3Cc3ccc(F)cc3)CC2)C(C)(C)c2ccccc21
refers to	log2 fold change
NINJ1 mRNA	1.65
SLC29A1 mRNA	-1.65
FGF18 mRNA	2.63
ARHGEF39 mRNA	-1.51
C5orf34 mRNA	-0.9
KIFC1 mRNA	-2.51
TMEM263 mRNA	1.01
ITPR1 mRNA	1
SLC38A4 mRNA	-3.44
KDELR3 mRNA	-1.43
PLEKHO1 mRNA	-0.976
ORC6 mRNA	-1.09
DUSP16 mRNA	1.03
EHD3 mRNA	-0.864
SAMD1 mRNA	-0.999

Sample 4 — medium: plasma; route: intravenous; dose: 1 mg/kg
Structure (SMILES): Cc1ccc(O)c(C)c1-c1cnc2[nH]c(-c3cnc(N4CCC5(CC4)CC(N4CCN(c6ccc(N[C@H]7CCC(=O)NC7=O)cc6F)CC4)CO5)nc3)cc2c1C#N (single isomer, unassigned)
host	clearance [mL/min/kg]
male beagle dog	7.2
male Sprague-Dawley rat	17.6
male cynomolgus monkey	19.3

A few entries again (sample 3):
refers to	log2 fold change
KDELR3 mRNA	-1.43
PLEKHO1 mRNA	-0.976
ORC6 mRNA	-1.09
